Assay results collected from several papers.
Compare with care: the assays were run in different laboratories. Numbers after ± are the reported error.
Cell line: PC-3

O=C(NO)c1ccc(Cn2sc3ccccc3c2=O)cc1 — acetylated α-tubulin level (Western blot; concentration not given, 18 h): increased
CCCCCCCCCCCCCCCC(=O)N=C(N)NCCC[C@H](NC(=O)[C@H](CC(C)C)NC(=O)[C@@H](CC(C)C)NC(=O)[C@H](Cc1ccc(O)cc1)NC(=O)[C@H](CO)NC(=O)[C@H](Cc1c[nH]c2ccccc12)NC(=O)[C@H](Cc1c[nH]cn1)NC(=O)[C@@H]1CCC(=O)N1)C(=O)N1CCC[C@H]1C(=O)NCC — cell proliferation (WST-1; 50 µM, 4 days, 2D monolayer, daily dosing; baseline: control): 86.7%
Cc1ccc(C(C)C)cc1.O=C([N-]c1nc2ccccc2[nH]1)c1cnccn1.[Cl-].[Ru+2] — selectivity index (cytotoxicity, MTT; baseline: KMST-6 over PC-3): > 2
CC12COC(c3ccccc3)OC1CCC1(C)C(C=CC3=CCOC3=O)C(CO)=CCC21 (stereo not shown) — inhibition (cell growth or viability, MTT; 20 µM, 48 h): 0%
CC(=O)O[C@@H]1CC[C@@]2(C)[C@@H](CC[C@]3(C)[C@@H]2C(=O)C=C2[C@@H]4[C@@H](C)[C@H](C)CC[C@]4(C)CC[C@]23C)[C@@]1(C)C(=O)NCCNC(=O)CCCCCCCCCCBr — IC50 (cell growth or viability, MTT; 48 h): > 30 µM
CC(=O)OCC1=CCC2[C@]3(C)COC(c4ccccc4)O[C@@H]3CC[C@@]2(C)[C@@H]1/C=C/C1=CCOC1=O (stereo partly shown) — inhibition (cell growth or viability, MTT; 20 µM, 48 h): 29%
C=C1CC(OC(=O)C(C)(O)CCl)C2C(=C)C(=O)OC2C2C1CC(O)C2(O)CCl (stereo not shown) — cells in S phase (flow cytometry; IC50, 48 h): 48.4 ± 1.7%
CC(=O)OC[C@H]1O[C@@H](Sc2sc(C(=O)c3ccc(C)cc3)c(N)c2-c2nc3ccccc3s2)[C@H](OC(C)=O)[C@@H](OC(C)=O)[C@@H]1OC(C)=O — growth (SRB; 10 µM, 48 h; baseline: untreated): 63.2%
COc1cc(CNC(=O)C[C@H](C)CCC=C(C)C)ccc1OCc1cn(-c2ccc(Cl)cc2Cl)nn1 — growth percent (SRB; 10 µM, 48 h): 85%
Cc1nn(-c2ccc(S(=O)(=O)N[C@H](CO)CC(C)C)cc2)c2nn3nnnc3nc12 — apoptotic cells (PI/Hoechst staining; 2 µM, 24 h): 17 ± 1.4%
COC(C(=NOCC(=O)Nc1ccncc1)C(O)C(C)O)C1Cc2cc3cc(OC4CC(OC5CC(O)C(O)C(C)O5)C(O)C(C)O4)c(C)c(O)c3c(O)c2C(=O)C1OC1CC(OC2CC(OC3CC(C)(O)C(O)C(C)O3)C(O)C(C)O2)C(O)C(C)O1 (stereo not shown) — GI50 (cell growth or viability; 72 h): 0.201 µM
COc1cc(CNC(=O)C[C@H](C)CCC=C(C)C)ccc1OCc1cn(-c2ccc(C#N)cc2)nn1 — growth percent (SRB; 10 µM, 48 h): 68.2%
COC(C(=NOCc1ccc([N+](=O)[O-])cc1)C(O)C(C)O)C1Cc2cc3cc(OC4CC(OC5CC(O)C(O)C(C)O5)C(O)C(C)O4)c(C)c(O)c3c(O)c2C(=O)C1OC1CC(OC2CC(OC3CC(C)(O)C(O)C(C)O3)C(O)C(C)O2)C(O)C(C)O1 (stereo not shown) — GI50 (cell growth or viability; 72 h): 0.113 µM
C[N+]1(CC(=O)OC2CCCCCCCCCCC2)CCCCC1 — ED50 (cell viability, CellTiter Blue; 96 h): 6.1 µM
COc1cc(CNC(=O)C[C@H](C)CCC=C(C)C)ccc1OCc1cn(-c2ccc([N+](=O)[O-])cc2)nn1 — growth percent (SRB; 10 µM, 48 h): 85.5%
CC/C=C\C/C=C\C/C=C\C/C=C\C/C=C\C/C=C\CCC(=O)Nc1ccn(C2OC(CO)C(O)C2(F)F)c(=O)n1 (stereo not shown) — GI50 (cell growth or viability, SRB): 10.7 µM
COC(C(=NOCC(=O)O)C(O)C(C)O)C1Cc2cc3cc(OC4CC(OC5CC(O)C(O)C(C)O5)C(O)C(C)O4)c(C)c(O)c3c(O)c2C(=O)C1OC1CC(OC2CC(OC3CC(C)(O)C(O)C(C)O3)C(O)C(C)O2)C(O)C(C)O1 (stereo not shown) — GI50 (cell growth or viability; 72 h): 1.81 µM
CC1(CO)C(O)CCC2(C)C(C=CC3=CCOC3=O)C(CO)=CCC12 (stereo not shown) — inhibition (cell growth or viability, MTT; 20 µM, 48 h): 0%
CCCCCCCCCCCC1N=C(N)N=C(N)N1c1ccc(Cl)cc1.Cl (racemic) — growth inhibition (concentration not given): ≤ 100%
O=C(O)CCC(NP(=O)(O)OCCC[C@@H](NC(=O)CC[C@H](NC(=O)CCCCCNC(=O)c1ccc([18F])cc1)C(=O)O)C(=O)O)C(=O)O (stereo partly shown) — cell uptake (concentration not given, 4 h): 0.04 ± 0.01%
CC(=O)OC[C@H]1O[C@@H](Sc2sc(C(=O)c3ccc(Br)cc3)c(N)c2-c2nc3ccccc3s2)[C@H](OC(C)=O)[C@@H](OC(C)=O)[C@@H]1OC(C)=O — growth (SRB; 10 µM, 48 h; baseline: untreated): 90.8%
COC(C(=NOCC(=O)Nc1cncnc1)C(O)C(C)O)C1Cc2cc3cc(OC4CC(OC5CC(O)C(O)C(C)O5)C(O)C(C)O4)c(C)c(O)c3c(O)c2C(=O)C1OC1CC(OC2CC(OC3CC(C)(O)C(O)C(C)O3)C(O)C(C)O2)C(O)C(C)O1 (stereo not shown) — GI50 (cell growth or viability; 72 h): 0.985 µM
CC(C)C[C@H](NC(=O)C[C@H](O)[C@H](CC(C)C)NC(=O)[C@H](Cc1c[nH]cn1)NC(=O)CNC(=O)[C@@H](NC(=O)[C@H](C)NC(=O)[C@H](Cc1c[nH]c2ccccc12)NC(=O)[C@H](CCC(N)=O)NC(=O)[C@@H](Cc1ccccc1)NC(=O)CCOCCOCCOCCNC(=O)CN1CCN(CC(=O)O)CCN(CC(=O)O)CC1)C(C)C)C(N)=O [gallium-68 labelled] — internalized fraction (acid wash; 1 h, 37 °C; baseline: total uptake): < 15%
COc1cc(/C=C/C(=O)/C=C(O)/C=C/c2ccc(OCC(=O)N3CCOCCOCCOCCOCC3)c(OC)c2)ccc1OCC(=O)N1CCOCCOCCOCCOCC1 — inhibition (cell growth or viability, SRB; 5 µM): 11.4%
COC(C(=NO)C(O)C(C)O)C1Cc2cc3cc(OC4CC(OC5CC(O)C(O)C(C)O5)C(O)C(C)O4)c(C)c(O)c3c(O)c2C(=O)C1OC1CC(OC2CC(OC3CC(C)(O)C(O)C(C)O3)C(O)C(C)O2)C(O)C(C)O1 (stereo not shown) — GI50 (cell growth or viability; 72 h): 0.518 µM
CCCCCCC(=O)NCCNC(=O)[C@]1(C)[C@@H]2CC[C@]3(C)[C@H](C(=O)C=C4[C@@H]5[C@@H](C)[C@H](C)CC[C@]5(C)CC[C@]43C)[C@@]2(C)CC[C@H]1OC(C)=O — IC50 (cell growth or viability, MTT; 48 h): 13.8 µM
COC(C(=NOCC(=O)NCCc1c[nH]c2ccccc12)C(O)C(C)O)C1Cc2cc3cc(OC4CC(OC5CC(O)C(O)C(C)O5)C(O)C(C)O4)c(C)c(O)c3c(O)c2C(=O)C1OC1CC(OC2CC(OC3CC(C)(O)C(O)C(C)O3)C(O)C(C)O2)C(O)C(C)O1 (stereo not shown) — GI50 (cell growth or viability; 72 h): 1.03 µM
CC1=C(C2=C(C)C(=O)c3c(cc(O)c(O)c3Cc3ccccc3)C2=O)C(=O)c2cc(O)c(O)c(Cc3ccccc3)c2C1=O (racemic) — EC50 (cell growth or viability, ATP luminescence; 72 h): 0.3 µM
COc1cc(CNC(=O)C[C@H](C)CCC=C(C)C)ccc1OCc1cn(-c2ccccc2F)nn1 — growth percent (SRB; 10 µM, 48 h): 87.9%
COC(C(=NOCC(=O)NCCc1ccccc1)C(O)C(C)O)C1Cc2cc3cc(OC4CC(OC5CC(O)C(O)C(C)O5)C(O)C(C)O4)c(C)c(O)c3c(O)c2C(=O)C1OC1CC(OC2CC(OC3CC(C)(O)C(O)C(C)O3)C(O)C(C)O2)C(O)C(C)O1 (stereo not shown) — GI50 (cell growth or viability; 72 h): 0.58 µM
COc1cc(CNC(=O)C[C@H](C)CCC=C(C)C)ccc1OCc1cn(-c2ccc(Br)cc2)nn1 — growth percent (SRB; 10 µM, 48 h): 81.4%
N=C(N)NCCC[C@@H]1NC(=O)[C@H](CCCCN)NC(=O)[C@@H](Cc2ccc(O)cc2)NC(=O)[C@H](CC(=O)O)NC(=O)CNC1=O — GI50 (cell growth or viability, MTT): 74.4 µM
COc1cc(CNC(=O)C[C@H](C)CCC=C(C)C)ccc1OCc1cn(-c2ccc(Cl)c(Cl)c2)nn1 — growth percent (SRB; 10 µM, 48 h): 65.9%
[Cl][Pd-2]1([Cl])[N+](=Cc2ccc[nH]2)Cc2cccc[n+]21 — viability reduction (MTT; 100 µg/mL, 24 h): > 80%
COc1cc(/C=C/C(=O)/C=C(O)/C=C/c2ccc(OCC(=O)N3CCOCCOCCOCC3)c(OC)c2)ccc1OCC(=O)N1CCOCCOCCOCC1 — inhibition (cell growth or viability, SRB; 5 µM): 11.4%
COC(C(=NOCCCCc1c[nH]c2ccccc12)C(O)C(C)O)C1Cc2cc3cc(OC4CC(OC5CC(O)C(O)C(C)O5)C(O)C(C)O4)c(C)c(O)c3c(O)c2C(=O)C1OC1CC(OC2CC(OC3CC(C)(O)C(O)C(C)O3)C(O)C(C)O2)C(O)C(C)O1 (stereo not shown) — GI50 (cell growth or viability; 72 h): 0.14 µM
CCC(=C(c1ccc(Cl)cc1)c1ccc(OCCCN(C)C)cc1)c1ccc(OC)cc1 — GI50 (cell growth or viability): 1.12 µM
COc1cc(CNC(=O)C[C@H](C)CCC=C(C)C)ccc1O — growth percent (SRB; 10 µM, 48 h): 83.2%
CC(Cc1ccc(Cl)cc1)=C(c1ccc(Cl)cc1)c1ccc(OCCN(C)C)cc1 — GI50 (cell growth or viability): 4.34 µM
CN(C)c1cccc2c(S(=O)(=O)NCCCCCC(=O)NO)cccc12 — alpha-tubulin acetylation (Western blot; concentration not given): increased

For quick reference, copied from above:
CC1(CO)C(O)CCC2(C)C(C=CC3=CCOC3=O)C(CO)=CCC12 (stereo not shown) — inhibition (cell growth or viability, MTT; 20 µM, 48 h): 0%
COc1cc(CNC(=O)C[C@H](C)CCC=C(C)C)ccc1OCc1cn(-c2ccc(Cl)cc2Cl)nn1 — growth percent (SRB; 10 µM, 48 h): 85%
O=C(NO)c1ccc(Cn2sc3ccccc3c2=O)cc1 — acetylated α-tubulin level (Western blot; concentration not given, 18 h): increased
CCCCCCCCCCCC1N=C(N)N=C(N)N1c1ccc(Cl)cc1.Cl (racemic) — growth inhibition (concentration not given): ≤ 100%
C=C1CC(OC(=O)C(C)(O)CCl)C2C(=C)C(=O)OC2C2C1CC(O)C2(O)CCl (stereo not shown) — cells in S phase (flow cytometry; IC50, 48 h): 48.4 ± 1.7%
